Measurements of several laboratories.
Compare with care: the assays were run in different laboratories. Values joined by “and” are separate records of one study, mostly repeats; a detail may differ. ± marks the error that the study gave.
Putative glycogen synthase kinase: Putative glycogen synthase kinase (Leishmania major, UniProt Q4QE15)
ROP18: ROP18 (Toxoplasma gondii, UniProt Q2PAY2)
Sequence of UniProt P81908 (whole entry, looked up): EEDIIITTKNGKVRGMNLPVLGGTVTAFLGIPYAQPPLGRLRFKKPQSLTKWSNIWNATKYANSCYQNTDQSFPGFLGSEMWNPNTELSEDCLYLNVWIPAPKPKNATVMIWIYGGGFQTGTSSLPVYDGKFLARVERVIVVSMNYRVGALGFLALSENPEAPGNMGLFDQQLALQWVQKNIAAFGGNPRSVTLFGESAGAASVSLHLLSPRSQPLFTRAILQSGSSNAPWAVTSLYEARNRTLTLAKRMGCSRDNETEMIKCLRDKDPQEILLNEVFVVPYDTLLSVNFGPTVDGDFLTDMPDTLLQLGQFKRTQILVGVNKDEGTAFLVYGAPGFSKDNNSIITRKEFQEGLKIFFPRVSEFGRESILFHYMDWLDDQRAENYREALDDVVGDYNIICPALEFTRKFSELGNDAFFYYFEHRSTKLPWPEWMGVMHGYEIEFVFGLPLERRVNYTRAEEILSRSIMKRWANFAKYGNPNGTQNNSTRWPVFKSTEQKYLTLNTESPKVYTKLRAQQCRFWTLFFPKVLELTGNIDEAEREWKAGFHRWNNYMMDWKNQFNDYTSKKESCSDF
Sequence of UniProt Q8NET8 (whole entry, looked up): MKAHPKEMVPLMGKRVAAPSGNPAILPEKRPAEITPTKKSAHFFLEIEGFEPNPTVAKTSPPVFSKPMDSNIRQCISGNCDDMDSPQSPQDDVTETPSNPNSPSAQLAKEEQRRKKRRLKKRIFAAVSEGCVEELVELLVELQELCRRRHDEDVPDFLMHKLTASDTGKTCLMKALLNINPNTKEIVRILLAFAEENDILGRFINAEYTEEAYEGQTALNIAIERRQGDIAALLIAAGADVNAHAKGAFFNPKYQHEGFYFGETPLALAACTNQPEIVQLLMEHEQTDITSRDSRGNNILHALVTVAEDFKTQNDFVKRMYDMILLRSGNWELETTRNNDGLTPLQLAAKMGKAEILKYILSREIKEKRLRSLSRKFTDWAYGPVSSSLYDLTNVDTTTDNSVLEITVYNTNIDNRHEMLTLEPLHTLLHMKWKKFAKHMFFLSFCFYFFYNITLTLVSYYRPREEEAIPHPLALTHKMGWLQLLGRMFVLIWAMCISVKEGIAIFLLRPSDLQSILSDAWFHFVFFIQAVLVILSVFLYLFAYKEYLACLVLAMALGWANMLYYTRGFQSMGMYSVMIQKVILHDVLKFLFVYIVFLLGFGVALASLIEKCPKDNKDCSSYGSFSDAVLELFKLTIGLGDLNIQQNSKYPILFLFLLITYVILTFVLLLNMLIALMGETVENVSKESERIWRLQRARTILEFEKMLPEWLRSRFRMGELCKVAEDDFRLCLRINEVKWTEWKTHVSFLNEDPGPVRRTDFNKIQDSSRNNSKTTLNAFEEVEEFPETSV
Sequence of UniProt Q2PAY2 (whole entry, looked up): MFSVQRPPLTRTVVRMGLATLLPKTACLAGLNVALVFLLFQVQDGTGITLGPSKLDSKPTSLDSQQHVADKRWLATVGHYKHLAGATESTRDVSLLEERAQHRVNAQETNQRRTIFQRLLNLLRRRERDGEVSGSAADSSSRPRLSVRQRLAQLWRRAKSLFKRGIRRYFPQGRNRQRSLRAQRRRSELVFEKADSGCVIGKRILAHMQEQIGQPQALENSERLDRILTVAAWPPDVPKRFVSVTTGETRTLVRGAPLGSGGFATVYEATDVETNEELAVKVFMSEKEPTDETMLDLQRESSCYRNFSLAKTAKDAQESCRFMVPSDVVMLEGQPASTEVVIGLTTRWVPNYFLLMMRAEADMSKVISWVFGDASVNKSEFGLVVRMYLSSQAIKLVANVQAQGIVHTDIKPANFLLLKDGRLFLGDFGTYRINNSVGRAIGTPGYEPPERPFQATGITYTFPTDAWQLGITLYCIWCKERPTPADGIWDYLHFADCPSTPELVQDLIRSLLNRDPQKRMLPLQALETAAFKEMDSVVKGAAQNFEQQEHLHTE
Sequence of UniProt P22303 (whole entry, looked up): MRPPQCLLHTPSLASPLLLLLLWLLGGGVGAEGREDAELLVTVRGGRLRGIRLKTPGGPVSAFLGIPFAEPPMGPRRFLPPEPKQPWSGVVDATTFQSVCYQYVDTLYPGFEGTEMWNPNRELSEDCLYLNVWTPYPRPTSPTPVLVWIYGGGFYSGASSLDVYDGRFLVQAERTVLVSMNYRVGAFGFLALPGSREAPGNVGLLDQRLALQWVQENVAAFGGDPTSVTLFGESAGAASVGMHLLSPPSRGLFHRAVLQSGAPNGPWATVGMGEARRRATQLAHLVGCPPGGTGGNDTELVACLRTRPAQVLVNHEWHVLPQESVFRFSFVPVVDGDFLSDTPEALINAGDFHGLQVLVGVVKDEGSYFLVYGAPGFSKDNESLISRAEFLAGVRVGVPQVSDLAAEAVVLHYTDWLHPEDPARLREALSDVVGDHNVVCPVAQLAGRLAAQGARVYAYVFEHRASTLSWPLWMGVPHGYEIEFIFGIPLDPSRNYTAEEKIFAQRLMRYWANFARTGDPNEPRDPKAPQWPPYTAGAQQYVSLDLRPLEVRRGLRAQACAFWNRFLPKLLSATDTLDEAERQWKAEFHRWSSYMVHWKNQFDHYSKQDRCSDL
Sequence of UniProt P10275 (whole entry, looked up): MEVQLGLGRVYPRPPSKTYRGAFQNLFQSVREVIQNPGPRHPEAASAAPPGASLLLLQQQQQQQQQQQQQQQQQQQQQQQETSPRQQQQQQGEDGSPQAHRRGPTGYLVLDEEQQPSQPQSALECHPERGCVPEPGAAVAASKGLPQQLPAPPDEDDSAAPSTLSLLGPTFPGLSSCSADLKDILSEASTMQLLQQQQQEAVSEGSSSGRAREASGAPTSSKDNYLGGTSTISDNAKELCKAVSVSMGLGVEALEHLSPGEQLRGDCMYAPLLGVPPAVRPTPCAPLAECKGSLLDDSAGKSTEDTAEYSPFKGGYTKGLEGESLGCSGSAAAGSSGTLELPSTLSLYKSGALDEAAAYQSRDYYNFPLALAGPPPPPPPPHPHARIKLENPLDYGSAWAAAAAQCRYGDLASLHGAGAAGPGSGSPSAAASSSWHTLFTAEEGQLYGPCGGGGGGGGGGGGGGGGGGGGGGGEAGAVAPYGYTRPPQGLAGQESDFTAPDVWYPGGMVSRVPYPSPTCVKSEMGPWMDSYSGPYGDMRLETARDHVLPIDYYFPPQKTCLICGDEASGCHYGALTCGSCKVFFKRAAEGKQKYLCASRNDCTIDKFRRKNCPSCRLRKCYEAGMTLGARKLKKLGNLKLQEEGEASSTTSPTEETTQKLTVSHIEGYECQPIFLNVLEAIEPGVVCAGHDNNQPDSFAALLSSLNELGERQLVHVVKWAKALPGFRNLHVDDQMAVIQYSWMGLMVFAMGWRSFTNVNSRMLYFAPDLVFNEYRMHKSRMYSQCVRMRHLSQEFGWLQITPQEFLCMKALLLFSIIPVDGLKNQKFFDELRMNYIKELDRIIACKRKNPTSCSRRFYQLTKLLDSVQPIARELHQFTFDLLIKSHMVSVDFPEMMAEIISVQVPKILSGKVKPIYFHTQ
Sequence of UniProt Q15910 (whole entry, looked up): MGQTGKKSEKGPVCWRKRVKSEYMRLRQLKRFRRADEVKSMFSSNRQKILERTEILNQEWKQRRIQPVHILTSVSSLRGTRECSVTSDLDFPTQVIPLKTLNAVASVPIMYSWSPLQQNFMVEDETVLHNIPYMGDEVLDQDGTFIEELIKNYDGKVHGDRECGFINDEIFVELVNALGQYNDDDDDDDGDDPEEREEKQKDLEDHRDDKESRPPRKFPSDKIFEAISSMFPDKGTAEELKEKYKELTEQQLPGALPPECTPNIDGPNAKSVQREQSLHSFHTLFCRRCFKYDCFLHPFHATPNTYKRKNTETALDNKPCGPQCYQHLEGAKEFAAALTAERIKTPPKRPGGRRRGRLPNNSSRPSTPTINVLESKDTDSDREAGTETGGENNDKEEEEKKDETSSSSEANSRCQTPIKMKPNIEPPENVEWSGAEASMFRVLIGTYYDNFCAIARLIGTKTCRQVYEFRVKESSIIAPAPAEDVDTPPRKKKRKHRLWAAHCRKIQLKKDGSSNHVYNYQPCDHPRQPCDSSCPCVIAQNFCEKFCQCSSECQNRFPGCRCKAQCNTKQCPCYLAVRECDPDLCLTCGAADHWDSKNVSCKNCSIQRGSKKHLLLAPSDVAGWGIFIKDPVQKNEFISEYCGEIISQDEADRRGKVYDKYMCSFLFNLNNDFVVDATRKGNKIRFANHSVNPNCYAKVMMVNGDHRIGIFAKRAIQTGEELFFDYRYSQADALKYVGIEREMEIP
Sequence of UniProt O15379 (whole entry, looked up): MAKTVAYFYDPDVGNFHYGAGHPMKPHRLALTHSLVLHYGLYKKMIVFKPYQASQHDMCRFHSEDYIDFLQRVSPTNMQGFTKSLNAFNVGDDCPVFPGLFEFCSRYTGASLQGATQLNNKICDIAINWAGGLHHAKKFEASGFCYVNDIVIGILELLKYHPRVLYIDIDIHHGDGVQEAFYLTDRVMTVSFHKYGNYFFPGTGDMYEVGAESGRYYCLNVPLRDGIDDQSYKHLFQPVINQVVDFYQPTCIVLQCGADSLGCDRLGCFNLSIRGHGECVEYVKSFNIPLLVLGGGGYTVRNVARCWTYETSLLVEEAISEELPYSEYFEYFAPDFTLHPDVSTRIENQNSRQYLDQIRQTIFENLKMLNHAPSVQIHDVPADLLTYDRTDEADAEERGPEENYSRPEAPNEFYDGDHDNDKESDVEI
Sequence of UniProt Q5XI64 (whole entry, looked up): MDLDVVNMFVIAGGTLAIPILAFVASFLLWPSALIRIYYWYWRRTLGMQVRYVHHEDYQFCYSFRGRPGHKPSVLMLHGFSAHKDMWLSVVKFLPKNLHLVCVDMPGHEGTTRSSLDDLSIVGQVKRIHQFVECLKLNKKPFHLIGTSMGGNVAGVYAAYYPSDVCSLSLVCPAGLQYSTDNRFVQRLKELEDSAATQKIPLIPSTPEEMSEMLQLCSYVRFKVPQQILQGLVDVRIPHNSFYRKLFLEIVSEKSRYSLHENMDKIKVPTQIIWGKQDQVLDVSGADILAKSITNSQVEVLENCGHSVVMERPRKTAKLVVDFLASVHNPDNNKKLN

Compound	target	assay	test system	conditions	IC50
O=C1Nc2ccc3ncsc3c2/C1=C/Nc1ccc(S(=O)(=O)Nc2ccccn2)cc1	Putative glycogen synthase kinase	enzyme activity, inhibitor		90 min, 30 °C, with: ATP 2 µM	0.84 µM
OCC[S+](CCO)C[C@@H](O)[C@@H](O)CO	Si (Rattus norvegicus, UniProt P23739)	isomaltase activity, inhibitor	rat intestinal brush border vesicles	30 min, pH 6.0, 37 °C, with: substrate 7.4 mM	> 380 µM
O=C1C(SCCO)=C(SCCO)C(=O)c2ccccc21	ERRα (human)	reporter gene, antagonist, luciferase reporter qHTS			9.44 µM
Oc1nccc2nc(NC3CCNC3)nc(Nc3cc(Cl)cc(Cl)c3)c12 (stereo not shown)	ROP18	enzyme activity, inhibitor			> 10 µM
Cc1cc(C)cc(-c2nnc(Sc3cc(Cl)nc(Sc4ccccc4)n3)[nH]2)c1	secA (Escherichia coli, UniProt P10408)	ATPase activity, inhibitor			50 µM
CC1=C(C(=O)NC(=O)c2cnccn2)C(c2ccc(F)cc2)NC(=O)N1 (stereo not shown)	Cholinesterase (BCHE, Equus caballus, UniProt P81908)				4.84 ± 0.01 µM
Clc1ccc(C(c2ccccc2Cl)C(Cl)(Cl)Cl)cc1 (stereo not shown)	KCNH2 (Homo sapiens, UniProt Q12809)	thallium influx, inhibitor, confirmation	hERG-transduced cells		22.2 ± 4.1 µM
Cc1cccc(C)c1OCC(=O)N[C@@H](Cc1ccccc1)[C@@H](O)C[C@H](Cc1ccccc1)NC(=O)[C@H](C(C)C)N1CCCNC1=O	SLCO1B1 (Homo sapiens, UniProt Q9Y6L6)	transport, inhibitor		10 (unit not given), pre-incubation, with: estrone-3-sulfate	0.6 ± 0.1 µM
O=[N+]([O-])c1cccc2[nH]c(CNc3nc(N4CCOCC4)nc4c3ncn4-c3ccsc3)nc12	Cyclin-dependent kinase 6, with cyclin D3 (CDK6, Homo sapiens, UniProt Q00534)	enzyme activity, inhibitor			0.311 µM
CC12CCC(OC(=O)NCCCn3ccnc3)CC1CCC1C2CCC2(C)C(c3ccc(=O)oc3)CCC12O (stereo not shown)	Sodium/potassium-transporting ATPase subunit alpha-1, with beta-1 subunit (Atp1a1, Rattus norvegicus, UniProt P06685)	pump current, inhibitor, two-electrode voltage clamp	Xenopus oocytes expressing β1	-60 mV	0.329 µM
O=C(NCCCCCn1ccc2ccc(F)cc21)Oc1ccc(C(=O)O)cc1	Cholinesterase (BCHE, Equus caballus, UniProt P81908)	enzyme activity, inhibitor, HPLC			0.97 µM
O=C(Cc1ccc2ccccc2c1)NC1CCOC1=O (stereo not shown)	rhlR (Pseudomonas aeruginosa, UniProt P54292)	reporter gene, antagonist			20.7 µM
CC1(C)[C@@H](OC(=O)CCC(=O)O)CC[C@]2(C)[C@H]3C(=O)C=C4[C@@H]5C[C@@](C)(C(=O)O)CC[C@]5(C)CC[C@@]4(C)[C@]3(C)CC[C@@H]12	CRISPR-associated endonuclease Cas9/Csn1 (cas9, Streptococcus pyogenes serotype M1, UniProt Q99ZW2)	ssDNA target strand cleavage, inhibitor		with: FAM ssDNA 87 nt, no PAM	> 50 µM
CCCCCCCCCCCCC/C=C/[C@@H](O)[C@@H](N)COP(=O)(O)OCC[N+](C)(C)C	RYR1 (Oryctolagus cuniculus, UniProt P11716)	channel open probability, inhibitor, planar lipid bilayer		with: calmodulin 100 nM, free Ca2+ 22 µM	0.7 ± 0.2 µM
CC(C)c1cccc(C(C)C)c1N=C=O	Hcn1 (Mus musculus, UniProt O88704)	channel gating (V1/2 shift), inhibitor, two-electrode voltage clamp	Xenopus oocytes		43.7 ± 3.8 µM
Cc1cc(C)c2c(N)c(C(=O)NCc3ccc4c(c3)OCO4)sc2n1	GABAA receptor benzodiazepine site	binding, radioligand displacement		approximate estimate, with: flunitrazepam	~10 µM
O=C(O)c1ccccc1Nc1ccc(Cc2ccccc2)cc1	Androgen receptor (AR, Homo sapiens, UniProt P10275)	reporter gene, antagonist, MMTV-Luc reporter	MDA-kb2	20 h, with: 8 nM DHT (EC90)	> 100 µM
CC(C)[C@H](NC(=O)N[C@H](C(=O)N[C@H]1/C=C/CCNC(=O)/C=C/[C@H](C(C)C)NC1=O)C(C)C)C(=O)O	PSMB6 (Homo sapiens, UniProt P28072)	active site labelling, inhibitor, probe competition gel	HEK-293T cell lysate	1 h, 37 °C, with: activity-based probe 0.5 µM	25 µM
CCCCCCCC(=O)OC[C@H](COP(=O)(O)O[C@@H]1[C@H](O)[C@H](O)[C@@H](OP(=O)(O)O)[C@H](OP(=O)(O)O)[C@H]1O)OC(=O)CCCCCCC	TRPV3 (Homo sapiens, UniProt Q8NET8)	channel activity, inhibitor, inside-out patch clamp	HM1 cells expressing target	holding potential +80 mV, with: PI-PLC 0.5 U/mL	~10 µM and 10 µM
c1ccc2c(c1)CCC[C@H]2Nc1nc2ccccc2[nH]1	Small conductance calcium-activated potassium channel protein 3, open state (Homo sapiens, UniProt Q9UGI6)	cell-based			7 µM
O=C(c1nc2ccc(OCCCCCN3CCCC3)cc2s1)N1CCCC1	ACHE (Homo sapiens, UniProt P22303)	enzyme activity, inhibitor			6.7 µM
O=C([O-])c1ccccc1-c1c2cc(Br)c(=O)cc-2oc2[c]([Hg+])c([O-])c(Br)cc12.[Na+].[Na+].[OH-]	SETD2 (Homo sapiens, UniProt Q9BYW2)	enzyme activity, inhibitor			2.4 µM
CC12CC3CC1(C)C1(C)CC3(CN)CC21C	NMDA receptor (rat)	intracellular Ca2+ increase, inhibitor	rat cerebellar granule neurons	with: 100 µM NMDA plus 10 µM glycine	2.8 ± 1.1 µM

Compound	target	assay	test system	conditions	IC50
O=C(NCCCCCCCCn1ccc2ccc(F)cc21)Oc1ccccc1	Cholinesterase (BCHE, Equus caballus, UniProt P81908)	enzyme activity, inhibitor, HPLC			3.2 µM and ~4 µM
Clc1ccc(C(c2ccc(Cl)cc2)n2cc[n+](CC(OCc3ccc(Cl)cc3Cl)c3ccc(Cl)cc3Cl)c2)cc1 (stereo not shown)	sfp (Bacillus subtilis, UniProt P39135)	phosphopantetheinylation, inhibitor, fluorescence polarization		45 min, pH 7.6, 10% DMSO, with: VibB 10 µM and rhodamine-CoA 5 µM	10 ± 1 µM
CN(Cc1cccc(-c2ccncc2)c1)C(=O)OC(C(F)(F)F)C(F)(F)F	Monoacylglycerol lipase ABHD6 (Abhd6, Rattus norvegicus, UniProt Q5XI64)	competitive ABPP	rat brain membrane proteome		0.013 µM
O=C1Nc2ccc(S(=O)(=O)O)cc2C1=C1Nc2ccccc2C1=NO	Putative glycogen synthase kinase	enzyme activity, inhibitor		90 min, 30 °C, with: ATP 2 µM	2.84 µM
CN1CC[C@]2(C)c3cc(OC(=O)Nc4ccccc4)ccc3N(C)[C@H]12	Cholinesterase (BCHE, Homo sapiens, UniProt P06276)	enzyme activity, inhibitor, immobilized enzyme reactor, HPLC-UV	immobilized recombinant human enzyme	inhibition plateau, L-tartrate salt	49.3 ± 1.5 µM
Cc1ccc(Oc2cccc(CC(=O)N3CCNc4nc(C(F)(F)F)ccc4[C@H]3CC(=O)O)c2)cn1	BRS3 (Homo sapiens, UniProt P32247)	radioligand binding	BALB 3T3 fibroblasts, transfected	60 min, 21 °C, with: 50 pM iodinated bombesin analogue	0.495 ± 0.001 µM
CCC(=O)Nc1cc(Nc2cc(NC3CC3)n3ncc(C#N)c3n2)ccc1N(C)CCN1CCCCC1	CSNK2A2 (Homo sapiens, UniProt P19784)	target engagement in cells, BRET			0.251 µM
CN1C(=O)[C@]23SS[C@@]1(C)C(=O)N2[C@H]1Nc2ccccc2[C@@]1([C@@]12c4ccccc4N[C@@H]1N1C(=O)[C@@]4(C)SS[C@]1(C(=O)N4C)[C@H]2O)[C@@H]3O	EZH2 (Homo sapiens, UniProt Q15910)	methyltransferase activity, inhibitor		with: 1 µM [3H]SAM	> 10 µM
Nc1ncnc2c1ncn2[C@@H]1O[C@H](COP(=O)(O)OP(=O)(O)OP(=O)(O)OP(=O)(O)OC[C@H]2O[C@@H](n3cnc4c(N)ncnc43)[C@H](O)[C@@H]2O)[C@@H](O)[C@H]1O	Protein adenylyltransferase VopS (vopS, Vibrio parahaemolyticus serotype O3:K6, UniProt Q87P32)	AMPylation activity, inhibitor, fluorescence polarisation		3 h, with: Cdc42 Q61L 5 µM, Fl-ATP 250 nM	11 µM
CC#Cc1ccc2ccc3ccccc3c2c1	Cytochrome P450 1B1 (CYP1B1, Homo sapiens, UniProt Q16678)	enzyme activity, inhibitor		5 s, pH 7.4	< 0.05 µM
COCCCNc1c2c3c(cccc3[nH]c1=O)C(=O)c1ccccc1-2	ROP18	kinase activity, inhibitor		with: peptide FL-E	> 10 µM
O=C(O)C(=O)CBr	HDAC3 (Homo sapiens, UniProt O15379)	enzyme activity, inhibitor			33 µM
CCN=C=S	MIF (Homo sapiens, UniProt P14174)	enzyme activity, inhibitor		with preincubation	11.1 µM
CC(C)(C)OC(=O)[C@H](CCCCNC(=O)c1ccc(CNC(=N)N)c(I)c1)NC(=O)CCCCCCC(=O)NCCCC[C@H](NC(=O)N[C@@H](CCC(=O)O)C(=O)O)C(=O)O	FOLH1 (Homo sapiens, UniProt Q04609)	enzyme activity, inhibitor, fluorescence		lysate	0.00088 µM
O=C(Nc1ccc(F)cc1)Oc1ccc[nH]c1=O	Replicase polyprotein 1ab, main protease (Feline coronavirus, UniProt Q98VG9)	enzyme activity, inhibitor, FRET			3.57 µM
C=CC=O	Thioredoxin reductase 2, mitochondrial (Txnrd2, Mus musculus, UniProt Q9JLT4)	enzyme activity, inhibitor		10 min, pH 7, 22 °C, pre-reduced enzyme, with: Trx 150 µM	0.231 µM
CCc1cncnc1N1CCN(Cc2nc3ccc(C(F)(F)F)cc3[nH]2)CC1	ERRα (human)	reporter gene, antagonist, luciferase reporter qHTS			6.68 µM
Oc1c(Cl)cc(-c2ccc(Cl)cc2Cl)cc1Cl	Sulfotransferase 2A6 (Sult2a6, Rattus norvegicus, UniProt P22789)	enzyme activity, inhibitor		6 min, 37 °C, with: DHEA 10 µM	~32 µM
COc1ccc(NC(=O)N2CCCCN3[C@H](CO)[C@H](c4ccc(C#Cc5ccccc5)cc4)[C@]3(CO)C2)cc1	Phenylalanine--tRNA ligase alpha subunit (Plasmodium falciparum, UniProt Q8I246)	aminoacylation activity, inhibitor			29.4 µM
NC(Cc1onc(O)c1Cl)C(=O)O (stereo not shown)	Glutamate receptor 3, S1S2 ligand-binding domain (Rattus norvegicus, UniProt P19492, del531-655/S657T/V656G)				55 ± 4 µM
CN1CCN(Cc2ccc(NC(=O)c3cncc(C#Cc4cnc(N)c5ncccc45)c3)cc2C(F)(F)F)CC1	Breakpoint cluster region protein/Tyrosine-protein kinase ABL1 (Homo sapiens, UniProt P00519+P11274)				0.0099 ± 0.0011 µM
C=C(C)[C@@H]1CCC(C)=C[C@H]1c1c(O)cc(CCCCC)cc1O	UGT1A6 (Homo sapiens, UniProt P19224)	enzyme activity, inhibitor	recombinant UGT1A6 microsomes from HEK293	pH 7.4, glucuronidation, with: serotonin	10 ± 2.6 µM
C[C@@H]1C[C@H]2[C@@H]3CCC4=CC(=O)C=C[C@]4(C)[C@@]3(Cl)[C@@H](O)C[C@]2(C)[C@@]1(OC(=O)c1ccco1)C(=O)CCl	ABCC1 (Homo sapiens, UniProt P33527)	efflux, inhibitor	SupT1-Vin overexpressing ABCC1	with: BODIPY FL verapamil 100 nM	1.6 ± 1 µM

For quick reference, copied from above:
Compound	target	assay	test system	conditions	IC50
O=C1Nc2ccc3ncsc3c2/C1=C/Nc1ccc(S(=O)(=O)Nc2ccccn2)cc1	Putative glycogen synthase kinase	enzyme activity, inhibitor		90 min, 30 °C, with: ATP 2 µM	0.84 µM
OCC[S+](CCO)C[C@@H](O)[C@@H](O)CO	Si (Rattus norvegicus, UniProt P23739)	isomaltase activity, inhibitor	rat intestinal brush border vesicles	30 min, pH 6.0, 37 °C, with: substrate 7.4 mM	> 380 µM
O=C1C(SCCO)=C(SCCO)C(=O)c2ccccc21	ERRα (human)	reporter gene, antagonist, luciferase reporter qHTS			9.44 µM
Oc1nccc2nc(NC3CCNC3)nc(Nc3cc(Cl)cc(Cl)c3)c12 (stereo not shown)	ROP18	enzyme activity, inhibitor			> 10 µM
